# Measured values from different studies.
# Parts stem from different laboratories: compare values within a part only.
# UniProt Q9FGV1, sequence (whole entry, looked up): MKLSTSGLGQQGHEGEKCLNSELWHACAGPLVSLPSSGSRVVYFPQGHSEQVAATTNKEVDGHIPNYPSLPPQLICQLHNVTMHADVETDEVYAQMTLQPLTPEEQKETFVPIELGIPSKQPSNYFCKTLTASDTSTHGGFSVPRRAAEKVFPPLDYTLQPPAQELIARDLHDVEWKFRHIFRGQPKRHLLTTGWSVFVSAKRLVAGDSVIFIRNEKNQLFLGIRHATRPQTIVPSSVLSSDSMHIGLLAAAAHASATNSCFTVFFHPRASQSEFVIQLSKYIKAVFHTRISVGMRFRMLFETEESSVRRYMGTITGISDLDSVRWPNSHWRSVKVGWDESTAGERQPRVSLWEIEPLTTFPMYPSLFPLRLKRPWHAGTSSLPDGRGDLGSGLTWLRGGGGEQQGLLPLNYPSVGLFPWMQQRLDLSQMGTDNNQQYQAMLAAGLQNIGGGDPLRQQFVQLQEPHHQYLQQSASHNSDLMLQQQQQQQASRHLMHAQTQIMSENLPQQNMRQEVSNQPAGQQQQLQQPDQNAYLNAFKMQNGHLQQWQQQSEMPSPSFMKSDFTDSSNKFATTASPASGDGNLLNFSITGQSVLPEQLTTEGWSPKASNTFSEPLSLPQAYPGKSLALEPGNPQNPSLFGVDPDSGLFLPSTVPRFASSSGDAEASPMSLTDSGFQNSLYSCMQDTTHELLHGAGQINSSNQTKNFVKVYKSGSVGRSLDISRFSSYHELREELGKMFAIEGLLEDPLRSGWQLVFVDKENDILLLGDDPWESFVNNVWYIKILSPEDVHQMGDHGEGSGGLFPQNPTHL
# UniProt Q84WU6, sequence (whole entry, looked up): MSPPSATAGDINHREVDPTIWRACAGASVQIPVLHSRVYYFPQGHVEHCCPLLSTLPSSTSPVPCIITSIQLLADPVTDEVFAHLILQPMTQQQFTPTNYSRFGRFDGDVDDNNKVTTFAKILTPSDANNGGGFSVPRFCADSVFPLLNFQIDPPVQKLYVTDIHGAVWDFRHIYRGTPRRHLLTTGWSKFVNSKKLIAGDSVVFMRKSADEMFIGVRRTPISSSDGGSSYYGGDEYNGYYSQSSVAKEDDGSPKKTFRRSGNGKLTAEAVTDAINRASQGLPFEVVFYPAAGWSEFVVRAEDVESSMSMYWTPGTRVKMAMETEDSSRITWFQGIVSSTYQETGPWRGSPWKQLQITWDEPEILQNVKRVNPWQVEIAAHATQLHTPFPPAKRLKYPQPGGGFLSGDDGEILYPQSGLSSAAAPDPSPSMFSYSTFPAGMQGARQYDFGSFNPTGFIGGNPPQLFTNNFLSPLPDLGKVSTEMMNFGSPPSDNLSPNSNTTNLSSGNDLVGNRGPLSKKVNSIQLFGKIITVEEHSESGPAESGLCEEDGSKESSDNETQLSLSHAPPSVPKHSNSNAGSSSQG
# UniProt Q9C7I9, sequence (whole entry, looked up): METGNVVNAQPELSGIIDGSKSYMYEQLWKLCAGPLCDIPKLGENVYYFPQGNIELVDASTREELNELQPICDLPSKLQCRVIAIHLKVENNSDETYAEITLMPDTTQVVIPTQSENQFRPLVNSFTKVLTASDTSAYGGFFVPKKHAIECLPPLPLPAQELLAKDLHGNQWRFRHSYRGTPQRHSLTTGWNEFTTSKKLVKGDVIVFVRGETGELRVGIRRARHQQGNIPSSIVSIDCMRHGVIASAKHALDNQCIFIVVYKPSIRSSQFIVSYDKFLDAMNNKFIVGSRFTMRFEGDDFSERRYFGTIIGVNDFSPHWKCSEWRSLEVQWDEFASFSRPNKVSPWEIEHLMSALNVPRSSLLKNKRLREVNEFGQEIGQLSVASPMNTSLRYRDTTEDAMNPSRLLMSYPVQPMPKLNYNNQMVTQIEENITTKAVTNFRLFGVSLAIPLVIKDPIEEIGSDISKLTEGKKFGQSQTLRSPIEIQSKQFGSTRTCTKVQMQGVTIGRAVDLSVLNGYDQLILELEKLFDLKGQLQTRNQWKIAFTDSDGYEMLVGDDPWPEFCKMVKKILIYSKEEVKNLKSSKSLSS
# UniProt Q9ZPY6, sequence (whole entry, looked up): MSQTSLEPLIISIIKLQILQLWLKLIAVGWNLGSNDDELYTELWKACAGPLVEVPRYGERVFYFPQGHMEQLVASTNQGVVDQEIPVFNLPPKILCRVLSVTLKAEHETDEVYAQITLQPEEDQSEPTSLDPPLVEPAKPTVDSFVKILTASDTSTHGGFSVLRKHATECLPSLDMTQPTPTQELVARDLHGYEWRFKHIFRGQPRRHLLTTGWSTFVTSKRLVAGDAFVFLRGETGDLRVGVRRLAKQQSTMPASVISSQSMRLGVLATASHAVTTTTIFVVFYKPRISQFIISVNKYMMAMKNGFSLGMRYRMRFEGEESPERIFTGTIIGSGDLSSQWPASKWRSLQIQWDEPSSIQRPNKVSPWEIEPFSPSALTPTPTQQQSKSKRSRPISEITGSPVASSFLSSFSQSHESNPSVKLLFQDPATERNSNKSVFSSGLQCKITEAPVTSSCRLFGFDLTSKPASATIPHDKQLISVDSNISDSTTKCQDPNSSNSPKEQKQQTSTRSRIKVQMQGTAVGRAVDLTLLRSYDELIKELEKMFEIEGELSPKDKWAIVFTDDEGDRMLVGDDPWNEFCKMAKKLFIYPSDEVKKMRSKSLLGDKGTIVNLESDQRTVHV

# Block 1 — method: RNA Bind-n-Seq; form: RNA; sample: in vitro; tested at: 200 nM; setting: whole 134-nt RNA, ends assumed; together with: 150 mM KCl; baseline: input library; reading: higher = stronger binding
# Target: Ras GTPase-activating protein-binding protein 1, full length (G3BP1, Homo sapiens, UniProt Q13283)
# UniProt Q13283, sequence (whole entry, looked up): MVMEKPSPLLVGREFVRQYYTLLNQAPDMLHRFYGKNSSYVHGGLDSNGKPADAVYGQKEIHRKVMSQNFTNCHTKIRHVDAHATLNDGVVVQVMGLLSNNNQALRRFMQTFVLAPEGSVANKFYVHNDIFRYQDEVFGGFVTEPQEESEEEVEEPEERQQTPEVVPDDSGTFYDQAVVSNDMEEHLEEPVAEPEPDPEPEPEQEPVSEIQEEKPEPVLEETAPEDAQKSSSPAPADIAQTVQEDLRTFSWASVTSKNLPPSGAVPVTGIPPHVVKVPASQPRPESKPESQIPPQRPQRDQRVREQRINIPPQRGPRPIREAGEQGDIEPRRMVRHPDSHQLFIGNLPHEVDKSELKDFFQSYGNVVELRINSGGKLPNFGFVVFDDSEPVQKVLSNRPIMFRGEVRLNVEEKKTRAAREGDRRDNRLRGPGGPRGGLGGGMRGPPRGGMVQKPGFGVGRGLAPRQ
# All sequences stand within: GGGAGUUCUACAGUCCGACGAUC … UGGAAUUCUCGGGUGUCAAGG
Sequence,log2 enrichment
ACCAUGCAGGUGGGCAUCUUUGGGAAGUGGGGCAAGGGGGGGAUAGGGAGGGGGGUAACACUUUGGGAACAGGUGGUCCCAGGUGGUUUC,1.13
CACAGACAACACGCACCCACACAGACACAGAGGGAAGGGGUUGGGAUGGGGACAGGGUGCACAGGAGGGCGGGGUAGGACCCCAGCCCCU,1.66
CUGUGCUACACAUCGUAUGUACCGAAUCGGGGAAAAAAAGGGGAAAAAAAGGGGUUUGGGGAAAGUAUUAUGUUACGCCGUUCGGAUCUG,-0.402
GCAGGAAGUAAAAACAAAUGGAAAUGCUUCGGAUAGUGGCAGGGGUGGGGGUUGCUAAGGAAAGGGUGAGAUGGGAGUGGGUAAAGAGUU,0.753
AGUCCUGUGCUACACAUCGUAUGUACCGAAUCGGCCCCGGGGCCCCGGGGCCCCGGGAAAGUAUUAUGUUACGCCGUUCGGAUCUGCACU,-0.419
UCCUGUGCUACACAUCGUAUGUACCGAAUCGGGGCCCCCGGGGCCCCCGGGGCCCCCGGAAAGUAUUAUGUUACGCCGUUCGGAUCUGCA,0.374
UGGCCCUGGUGGCAUGCGGGGAGGAAGAGGUGGCCUCAUGGAUCGUGGUGGUCCCGGUGGACUGUUCAGAGGUGGCCGUGGUGGAGACAG,0.302
GUCCUGUGCUACACAUCGUAUGUACCGAAUCGGGUUUUUUUGGGUUUUUGGGUUUGGGAAAGUAUUAUGUUACGCCGUUCGGAUCUGCAC,-0.479

# Block 2 — method: protein binding microarray; form: double-stranded DNA, one strand shown; sample: in vitro; tested at: not given; baseline: not given; reading: higher = stronger binding
# Target: Histone acetyltransferase KAT6A, winged helix 2, GST fusion (KAT6A, Homo sapiens, UniProt Q92794, residues 85-181)
# Setting: 8-mer, flanks averaged, mean of 2 arrays, mostly near background
# Residues (chain): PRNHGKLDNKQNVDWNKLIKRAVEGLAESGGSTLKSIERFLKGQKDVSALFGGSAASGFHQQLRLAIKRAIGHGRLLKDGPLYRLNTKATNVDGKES
Sequence,E-score
ATCATCGC,0.0657
AGTCTAAA,-0.156
GTGGGCCA,0.167
TACACATA,-0.275
AGTGAAGC,0.0968
ACTGCTAC,-0.0494
ATATTGTA,-0.0205
CTTGCGCA,-0.0341

# Block 3 — Molecule: B1 (ARF5 788-902); method: two-hybrid; reading: higher = firmer interaction
# B1: ARF5 788-902 (Arabidopsis thaliana, UniProt P93024); chain ATPRVRTYTKVQKTGSVGRSIDVTSFKDYEELKSAIECMFGLEGLLTHPQSSGWKLVYVDYESDVLLVGDDPWEEFVGCVRCIRILSPTEVQQMSEEGMKLLNSAGINDLKTSVS
partner,setting,scale,positive tests
"ARF17 (Arabidopsis thaliana, UniProt Q84WU6)",weak activation fusion,baseline: out of 2 tests,0
"ARF11 500-622 (Arabidopsis thaliana, UniProt Q9ZPY6)",,baseline: out of 2 tests,0
"ARF20 484-590 (Arabidopsis thaliana, UniProt Q9C7I9)",,baseline: out of 2 tests,0
"ARF8 699-811 (Arabidopsis thaliana, UniProt Q9FGV1)",,baseline: out of 3 tests,0

# Other studies, line by line
SMILES,target,test,setting,scale,endpoint,result
Nc1nc(Nc2ccc(S(N)(=O)=O)cc2)nn1C(=O)c1c(F)cccc1F,"Cyclin-dependent kinase 2, with cyclin A (CDK2, Homo sapiens, UniProt P24941)","enzyme activity, inhibitor",0.5 µM,baseline: control,remaining activity,2.21%

# For quick reference, copied from above (other studies, line by line):
SMILES,target,test,setting,scale,endpoint,result
Nc1nc(Nc2ccc(S(N)(=O)=O)cc2)nn1C(=O)c1c(F)cccc1F,"Cyclin-dependent kinase 2, with cyclin A (CDK2, Homo sapiens, UniProt P24941)","enzyme activity, inhibitor",0.5 µM,baseline: control,remaining activity,2.21%
